Measurements collected from several papers.
Compare with care: the assays were run in different laboratories. Several values in a cell are separate wells, animals, samples, runs or records. ± gives the spread as reported.

Substance = FVSLAIDAYPLTKHP; tested on = human CD4 T cells; assay = AIM; test system = peptide; quantity = responding donors; value = 14%
Substance = Cc1cc(/C=C/C#N)cc(C)c1Nc1nc(Nc2ccc3cc(C#N)ccc3c2)ncc1N; tested on = HIV-1; assay = viral replication, single-round infection; test system = RT mutant P236L; quantity = EC50; value = ≤ 2.1 nM
Substance = Cc1nc2n(n1)CC(=O)N[C@@H](C(C)C)CN(Cc1c[nH]cn1)CC(=O)N[C@@H](CC(C)C)c1nc(cs1)C(=O)N[C@H]2Cc1ccccc1; tested on = Lassa mammarenavirus; assay = viral replication; test system = Huh-7; setting = 10 µM, 72 h; quantity = remaining activity; value = 98%
Substance = YMSALNHTKKWKYPQ; tested on = human CD4 T cells; assay = AIM; test system = peptide; quantity = responding donors; value = 9%
Substance = COc1ccc2cc1OCCN(Cc1cc(CN3CCCCC3)cs1)CC(=O)N[C@H](C(C)C)C(=O)NCCn1ccnc1-2; tested on = Lassa mammarenavirus; assay = viral replication; test system = Huh-7; setting = concentration not given; quantity = Emax; value = 9.76%
Substance = CNC(=O)[C@@H](NC(=O)[C@H](CC(C)C)[C@H](O)C(=O)NO)C(C)(C)C; tested on = human fibrinogen; assay = SDS-PAGE; test system = Daboia russelii; setting = concentration not given, unit not given, with: PB venom; scale = reference: untreated fibrinogen; quantity = remaining fibrinogen Bβ chain; value = 0.841
Substance = NC(=O)CCNC(=O)c1ccccc1S; tested on = HIV-1; assay = viral replication; test system = human PBMC, subtype G JV1083, CCR5-tropic clinical isolate; quantity = EC50; value = 4630 ± 600 nM
Substance = C[n+]1ccc(-c2cc[n+](C)cc2)cc1; test system = rat paraquat poisoning; setting = dose not given, event flag 1; quantity = survival time; value = 3 days and 1 days and 6 days and 5 days and 4 days and 2 days
Substance = CNc1cc(C)nc(N2C[C@@H]3NC(=O)CCCNC(=O)c4cccc(c4)-c4cccc(c4)CO[C@H]3C2)n1; tested on = Lassa mammarenavirus; assay = viral replication; test system = Huh-7; setting = 10 µM, 72 h; quantity = remaining activity; value = 61%
Substance = Cc1cn([C@H]2C[C@H](N=[N+]=[N-])[C@@H](CO)O2)c(=O)[nH]c1=O; tested on = HIV-1; assay = viral replication; test system = human PBMC, group O BCF02, CCR5-tropic clinical isolate; quantity = EC50; value = 6.59 ± 1.26 nM
Substance = CN1CCCC2(C1)CN(Cc1cccnc1)c1ccc(C(=O)NCC3CCCCC3)cc12 (centres unmarked); tested on = SARS-CoV-2; assay = cytopathic effect; test system = USA_WA1/2020; setting = retest, 8-point, duplicates; quantity = efficacy; value = 124%
Substance = Cc1cc(/C=C/C#N)cc(C)c1Nc1ccnc(Nc2ccc(C#N)cc2)n1; tested on = HIV-1; assay = viral replication, single-round infection; test system = RT mutant G190A; quantity = EC50; value = 0.4 ± 0.1 nM
Substance = CC(Nc1nc(N2CCN(CCN)CC2)nc2ccccc12)c1ccccc1 (centres unmarked); tested on = SARS-CoV-2; assay = cytopathic effect; test system = USA_WA1/2020; setting = retest 8-point; quantity = efficacy; value = 123%
Substance = QVVNVVTTK; assay = AIM; test system = peptide, CD8+ T cells from PBMC, human donors; setting = HLA-A*03:01 restricted, unit not given; scale = reference: positive over tested donors; quantity = frequency of responding donors; value = 100
Substance = CCN(CC)CCNC(=O)c1ccc(-c2nc(CN3CCc4ccccc43)c(C)o2)cc1; tested on = SARS-CoV-2; assay = cytopathic effect; test system = USA_WA1/2020; setting = retest, 8-point, duplicates; quantity = maximum response; value = 91.9%
Substance = EVTPSGTWLTY; assay = AIM; test system = peptide, CD8+ T cells from PBMC, human donors; scale = reference: positive over tested donors; quantity = frequency of responding donors; value = 33%
Substance = CCN(CC)Cc1ccc(Nc2ccnc3cc(Cl)ccc23)cc1O; tested on = SARS-CoV-2; assay = cytopathic effect; test system = USA_WA1/2020; setting = round 2, 5-point; quantity = efficacy; value = 97.2%
Substance = Cc1cnccc1N1CCCN(Cc2ccc(C#CC(C)(C)O)cc2)CC1; tested on = Lassa mammarenavirus; assay = viral replication; test system = Huh-7; setting = 10 µM, 72 h; quantity = remaining activity; value = 57%
Substance = CC[C@H](C)[C@H](NC(=O)[C@H](C)NC(=O)[C@H](CO)NC(=O)[C@H](CC(=O)O)NC(=O)[C@H](CO)NC(=O)[C@H](Cc1ccccc1)NC(=O)[C@H](CS)NC(=O)[C@H](CC(=O)O)NC(=O)[C@H](Cc1ccccc1)NC(=O)[C@H](Cc1ccc(O)cc1)NC(=O)[C@H](Cc1ccc(O)cc1)NC(=O)[C@H](CC(C)C)NC(=O)[C@H](Cc1c[nH]cn1)NC(=O)[C@@H](NC(=O)[C@H](CC(C)C)NC(=O)[C@H](CCC(N)=O)NC(=O)[C@H](CC(=O)O)NC(=O)[C@H](C)NC(=O)[C@H](CC(C)C)NC(=O)[C@@H](N)CCC(=O)O)[C@@H](C)CC)C(=O)N[C@@H](CCCNC(=N)N)C(=O)N[C@@H](CCCCN)C(=O)N[C@@H](C)C(=O)N[C@@H](CC(C)C)C(=O)N[C@@H](CC(C)C)C(=O)NCC(=O)N[C@@H](Cc1c[nH]cn1)C(=O)N[C@H](C(=O)N[C@H](C(=O)N[C@@H](CO)C(=O)N1CCC[C@H]1C(=O)N[C@@H](CCCNC(=N)N)C(=O)N[C@@H](CS)C(=O)N[C@@H](CCC(=O)O)C(=O)N[C@@H](Cc1ccc(O)cc1)C(=O)N[C@@H](CCC(N)=O)C(=O)N[C@@H](C)C(=O)NCC(=O)N[C@@H](Cc1c[nH]cn1)C(=O)N[C@@H](CC(N)=O)C(=O)N[C@@H](CCCCN)C(=O)N[C@H](C(=O)O)C(C)C)C(C)C)[C@@H](C)CC; tested on = human Cul5 (1-384) GST fusion; assay = binding, GST pull-down; setting = 20 µM, no zinc; scale = reference: GST; quantity = bound amount; value = ≥ 7 fold
Substance = O=C1Nc2ccc(Cl)cc2[C@@](C#CC2CC2)(C(F)(F)F)O1; tested on = HIV-1; assay = viral replication, single-round infection; test system = RT mutant G190S; quantity = EC50; value = 17.1 ± 2.6 nM
Substance = GSSGVVNPVMEPIYD; tested on = human CD4 T cells; assay = AIM; test system = peptide; quantity = responding donors; value = 7%
Substance = CCCC(=O)OCSc1ccccc1C(=O)NCCC(N)=O; tested on = HIV-1; assay = viral replication; test system = human PBMC, subtype E CMU02, CCR5-tropic clinical isolate; quantity = EC50; value = 2300 ± 1210 nM
Substance = COP(=S)(OC)Oc1ccc([N+](=O)[O-])c(C)c1; tested on = rat CYP2D; assay = bufuralol 1'-hydroxylation; test system = liver microsomes; setting = concentration not given; quantity = Vmax; value = 0.94 ± 0.14 nmol/min/mg protein
Substance = COc1cc2cc(c1)C(=O)NCCCC(=O)N[C@H]1CN(C(=O)c3cccc(-c4ccccc4OC)c3)CC[C@@H]1OCc1cccc(c1)O2; tested on = Lassa mammarenavirus; assay = viral replication; test system = Huh-7; setting = 10 µM, 72 h; quantity = remaining activity; value = 63%
Substance = CCc1c(C(=O)C(N)=O)c2c(OCC(=O)O)cccc2n1Cc1ccccc1; tested on = C2C12; setting = 1 µM, with: GA venom; scale = reference: venom alone; quantity = viability difference; value = 7.99%
Substance = Cn1cc(CN2CCCC(COc3ccccc3C(=O)N3CCCCC3)C2)c2ccccc21 (centres unmarked); tested on = SARS-CoV-2; assay = cytopathic effect; test system = USA_WA1/2020; setting = round 1, 5-point; quantity = efficacy; value = 92.6%
Substance = Cn1c(Cn2ccc(C(F)(F)F)c(Oc3cc(Cl)cc(C#N)c3)c2=O)n[nH]c1=O; tested on = HIV-1; assay = viral replication, single-round infection; test system = RT mutant V111A; quantity = EC50; value = 0.3 ± 0.1 nM
Substance = Nc1cccc2c1CN(C1CCC(=O)NC1=O)C2=O (centres unmarked); tested on = human PBMC; assay = cytotoxicity; quantity = IC50; value = > 10000 nM
Substance = Nc1ncnc2c([C@@H]3N[C@H](CO)[C@@H](O)[C@H]3O)c[nH]c12; tested on = Marburg virus; assay = viral replication, antibody staining; test system = HeLa, Musoke; setting = 50 µM, 24 h; quantity = infected cells; value = 3.8%
Substance = C[C@@H]1O[C@@H](O[C@H]2CC[C@]3(C=O)[C@H]4CC[C@]5(C)[C@@H](C6=CC(=O)OC6)CC[C@]5(O)[C@@H]4CC[C@]3(O)C2)[C@H](O)[C@H](O)[C@H]1O; tested on = human iPSC-derived cardiomyocytes; assay = MyBP-C/MYH ratio, plate-normalised SD score; setting = concentration not given, primary screen; scale = direction not given; quantity = activity score; value = 7.1
Substance = COCCCNC(=O)C1CCN(Cc2cc3ccccc3n2Cc2cccc(Cl)c2)CC1; tested on = SARS-CoV-2; assay = cytopathic effect, cell-based CPE; test system = USA_WA1/2020; setting = round 2, 5-point dilution; quantity = AC50; value = 12600 nM
Substance = Cc1cc(/C=C/C#N)cc(C)c1-n1cnc2cnc(Nc3ccc4cc(C#N)ccc4c3)nc21; tested on = HIV-1; assay = viral replication, single-round infection; test system = RT mutant D67E; quantity = EC50; value = > 7 nM
Substance = COc1ccc(CCNC(=O)c2cc(Nc3ccccc3)nc3ccccc23)cc1OC; tested on = SARS-CoV-2; assay = cytopathic effect; test system = USA_WA1/2020; setting = round 1, 5-point; quantity = maximum response; value = 46.4%
Substance = CC[C@H](C)[C@H](NC(=O)[C@H](Cc1ccc(O)cc1)NC(=O)[C@H](Cc1c[nH]c2ccccc12)NC(=O)[C@H](CC(C)C)NC(C)=O)C(=O)N[C@@H](CCCCN)C(N)=O; assay = DSC; test system = SOPC/cholesterol 7/3 bilayers; setting = 15 mol%, pH 7.40; quantity = transition enthalpy; value = 1.4 kcal/mol
Substance = COc1ccccc1-c1ccc(CN2CCC(NC(=O)Cc3ccc(F)cc3)C2)cc1 (centres unmarked); tested on = SARS-CoV-2; assay = cytopathic effect, cell-based CPE; test system = USA_WA1/2020; setting = round 1, 5-point dilution; quantity = AC50; value = 12600 nM
Substance = NRNRFLYIIKLIFLW; tested on = human CD4 T cells; assay = AIM; test system = peptide; quantity = responding donors; value = 13%
Substance = Cc1cc(/C=C/C#N)cc(C)c1Nc1nc(Nc2ccc(/C=C/C#N)cc2)ncc1N; tested on = HIV-1; assay = viral replication, single-round infection; test system = RT mutant V111A; quantity = EC50; value = 0.1 ± 0.01 nM
Substance = AEIRASANL; assay = AIM; test system = peptide, CD8+ T cells from PBMC, human donors; setting = dose not given; quantity = response magnitude per positive donor; value = 113
Substance = CN(C)CCCN1c2ccccc2Sc2ccc(Cl)cc21; tested on = A2780; assay = cell viability, neutral red uptake; setting = with: UVA 5 J/cm2; quantity = IC50; value = 5700 nM
Substance = DSKTQSLLIVNNATN; tested on = human CD4 T cells; assay = AIM; test system = peptide; quantity = responding donors; value = 9%
Substance = O=C(CCC1CCN(Cc2ccccc2)CC1)c1ccc2c(c1)NCCCC2; tested on = HeLa; assay = Ebola VLP entry; quantity = IC50; value = 10900 nM

A few entries again:
Substance = NC(=O)CCNC(=O)c1ccccc1S; tested on = HIV-1; assay = viral replication; test system = human PBMC, subtype G JV1083, CCR5-tropic clinical isolate; quantity = EC50; value = 4630 ± 600 nM
Substance = CCc1c(C(=O)C(N)=O)c2c(OCC(=O)O)cccc2n1Cc1ccccc1; tested on = C2C12; setting = 1 µM, with: GA venom; scale = reference: venom alone; quantity = viability difference; value = 7.99%
Substance = CNC(=O)[C@@H](NC(=O)[C@H](CC(C)C)[C@H](O)C(=O)NO)C(C)(C)C; tested on = human fibrinogen; assay = SDS-PAGE; test system = Daboia russelii; setting = concentration not given, unit not given, with: PB venom; scale = reference: untreated fibrinogen; quantity = remaining fibrinogen Bβ chain; value = 0.841
Substance = YMSALNHTKKWKYPQ; tested on = human CD4 T cells; assay = AIM; test system = peptide; quantity = responding donors; value = 9%
Substance = DSKTQSLLIVNNATN; tested on = human CD4 T cells; assay = AIM; test system = peptide; quantity = responding donors; value = 9%
